{"data": "Experimental data pooled from the literature", "note": "Each numbered part is a random draw from the data of one study; scales do not carry over between parts. Positions count from the first letter of the parent shown."}
{"data": "Block 1", "target": "Sal-like protein 4, full length isoform B (SALL4, Homo sapiens, UniProt Q9UJQ4-2, residues 1-616)", "method": "universal PBM", "molecule type": "double-stranded DNA, one strand shown", "sample": "in vitro", "tested at": "not given", "setting": "8-mer, flanks averaged, mean of replicates", "reading": "higher = stronger binding"}
{"Strand": "AAGTGTCA", "E-score": 0.00046}
{"Strand": "TAAAATGA", "E-score": 0.296}
{"Strand": "ATTCACAA", "E-score": 0.214}
{"Strand": "CCTTGTTA", "E-score": 0.202}
{"Strand": "AGCACCTA", "E-score": -0.0732}
{"Strand": "AGGAACCG", "E-score": -0.202}
{"Strand": "CTGATGTA", "E-score": 0.154}
{"Strand": "ATAACGCC", "E-score": 0.159}
{"Strand": "ACACCCGT", "E-score": -0.203}
{"Strand": "AGGAGAAT", "E-score": 0.0466}
{"Strand": "GCTTGCCC", "E-score": -0.329}
{"Strand": "CCGCGTAA", "E-score": -0.0901}
{"Strand": "ACCCAGCG", "E-score": -0.315}
{"Strand": "CAATTCTA", "E-score": 0.0973}
{"Strand": "CGCACCTA", "E-score": -0.121}
{"Strand": "TAAAAACA", "E-score": 0.308}
{"Strand": "TCCAGGAA", "E-score": -0.0521}
{"data": "Block 2", "target": "RNA binding protein fox-1 homolog 2, RRM domain, GST-SBP tag (RBFOX2, Homo sapiens, UniProt O43251-10, residues 100-194)", "method": "RNA Bind-n-Seq", "molecule type": "RNA", "sample": "in vitro", "tested at": "365 nM", "setting": "natural RNA segment, single round, ends assumed", "relative to": "no-protein control", "reading": "higher = stronger binding", "Target sequence (chain)": "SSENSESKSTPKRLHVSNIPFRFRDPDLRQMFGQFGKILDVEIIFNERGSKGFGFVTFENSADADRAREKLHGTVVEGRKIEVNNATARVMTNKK"}
{"Strand": "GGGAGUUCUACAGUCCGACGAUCGCCAGGAGGACUCCAGCCGGUGCUCAGAUAACUCCAGCUAUGAGGAGCCCUUGUCACCCAUCUCAGCCAGCUCGUCCACCUCGCGACGGCGCCAAGGCCAGAGGGACCUGUGGAAUUCUCGGGUGCCAA", "RBNS enrichment (R)": 0.395}
{"Strand": "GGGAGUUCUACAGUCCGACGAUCGGCGUGGGGAGCUGGGCCCCAACAUGGCGGGUCUGCAGAAGAUCAGCAGCUUCUUACCUGUGCGGGAGCGAAAAAGCUGGGCUUCAACAUGGCAGGUCUGUAGGGGUCAGUGGAAUUCUCGGGUGCCAA", "RBNS enrichment (R)": 0.251}
{"Strand": "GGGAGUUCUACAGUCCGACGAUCUAAGGAAGUGCUUUAUCAGCUAAACCCAACAUUGAUAACUUUGGUAAUUUUUUUAAAAAGUUAUACUUGUAUUAGCAAGUUUUUUUUUUUUUCCCCCACCGCAACCUCCAUGGAAUUCUCGGGUGCCAA", "RBNS enrichment (R)": 0.651}
{"Strand": "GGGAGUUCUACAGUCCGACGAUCAAGAGGUAUUAGAAUCUUGCUGUACCCAAGCAAGACGUUAAUUUUUCUUUUAACUGUUUUGGGGAGGGAGGGAGUGAUAGCUUAACUGCUGAAGCCAGGCGGGGGUCUGCUGGAAUUCUCGGGUGCCAA", "RBNS enrichment (R)": 0.458}
{"Strand": "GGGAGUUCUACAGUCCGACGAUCUCGCUUGUGCAAAAGGGAAUAGUGCCGUGGAAGUGUGUGUCCAUGGCAGUUUGGACAGGGGUGACUGUUCACACGUAUGGACAGGCCUCGCCUGGGGAGUAAGGCCACCAUGGAAUUCUCGGGUGCCAA", "RBNS enrichment (R)": 0.865}
{"data": "Block 3", "target": "ABI1, truncated, D143A, DHFR fusion (Arabidopsis thaliana, UniProt P49597)", "method": "DHFR PCA, dose-response", "sample": "yeast", "setting": "Hill fit, mean, not affinity", "with": "(+)-ABA, dose series", "reading": "lower = more sensitive", "starting sequence": "PYL1, truncated, DHFR fusion (Arabidopsis thaliana, UniProt Q8VZS8); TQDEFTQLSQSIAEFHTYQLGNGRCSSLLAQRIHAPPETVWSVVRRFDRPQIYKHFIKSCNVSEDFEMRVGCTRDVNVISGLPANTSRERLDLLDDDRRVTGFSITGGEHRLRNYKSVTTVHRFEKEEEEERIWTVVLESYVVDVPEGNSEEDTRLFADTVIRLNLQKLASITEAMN"}
{"Substitution": "T101Y", "ABA EC50 [µM]": 10.4}
{"Substitution": "A13L", "ABA EC50 [µM]": 3.82}
{"Substitution": "S9V", "ABA EC50 [µM]": 7.58}
{"Substitution": "I12W", "ABA EC50 [µM]": 122}
{"Substitution": "E139V", "ABA EC50 [µM]": 1.94}
{"Substitution": "T1H", "ABA EC50 [µM]": 2.24}
{"Substitution": "F157Y", "ABA EC50 [µM]": 63.5}
{"Substitution": "G21N", "ABA EC50 [µM]": 3.41}
{"data": "Block 4", "target": "Ras GTPase-activating protein-binding protein 1, C-terminal RGG region (G3BP1, Homo sapiens, UniProt Q13283)", "method": "RNA Bind-n-Seq", "molecule type": "RNA", "sample": "in vitro", "tested at": "1 µM", "setting": "whole 134-nt RNA, ends assumed", "with": "150 mM KCl", "relative to": "input library", "reading": "higher = stronger binding", "UniProt Q13283, sequence (whole entry, looked up)": "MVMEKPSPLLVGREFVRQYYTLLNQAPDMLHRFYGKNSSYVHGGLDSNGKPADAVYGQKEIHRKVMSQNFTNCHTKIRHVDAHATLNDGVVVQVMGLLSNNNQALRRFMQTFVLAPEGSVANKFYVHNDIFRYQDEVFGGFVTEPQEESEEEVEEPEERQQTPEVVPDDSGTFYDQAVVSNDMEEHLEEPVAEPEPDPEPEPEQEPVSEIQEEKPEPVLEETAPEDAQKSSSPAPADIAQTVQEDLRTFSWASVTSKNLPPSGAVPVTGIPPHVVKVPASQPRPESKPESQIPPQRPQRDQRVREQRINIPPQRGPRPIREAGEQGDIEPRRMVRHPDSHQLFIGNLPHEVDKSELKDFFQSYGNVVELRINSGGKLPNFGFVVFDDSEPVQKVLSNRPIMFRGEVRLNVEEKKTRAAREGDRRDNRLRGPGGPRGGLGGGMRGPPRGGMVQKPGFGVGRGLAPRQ"}
{"Strand": "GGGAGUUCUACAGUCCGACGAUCUGGCCCUGGUCGCAUGCGGGGAGGAAGAGGUGGCCUCAUGGAUCGUGGUGGUCCCGGUGGAAUGUUCAGAGGUGGCCGUGGUGGAGACAGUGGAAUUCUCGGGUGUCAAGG", "log2 enrichment": 2.03}
{"Strand": "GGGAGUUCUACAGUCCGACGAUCCAAGUCCUGUGCUACACAUCGUAUGUACCGAAUCGGGGUGGGGUUUGGGGAGGGGAAAGUAUUAUGUUACGCCGUUCGGAUCUGCACUUCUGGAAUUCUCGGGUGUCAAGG", "log2 enrichment": 3.51}
{"Strand": "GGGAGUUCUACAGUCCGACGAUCUCAAGUCCUGUGCUACACAUCGUAUGUACCGAAUCGGGGUGGGGAGGGGAGGGGAAAGUAUUAUGUUACGCCGUUCGGAUCUGCACUUCCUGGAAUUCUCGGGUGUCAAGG", "log2 enrichment": 3.24}
{"Strand": "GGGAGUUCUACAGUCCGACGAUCAAGUCCUGUGCUACACAUCGUAUGUACCGAAUCGGAAAAGGGGAAAAGGAAAAGGGAAAGUAUUAUGUUACGCCGUUCGGAUCUGCACUUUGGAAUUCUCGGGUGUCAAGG", "log2 enrichment": -1.51}
{"Strand": "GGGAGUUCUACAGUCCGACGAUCCUCAAGUCCUGUGCUACACAUCGUAUGUACCGAAUCGGAAAGGAAAAAGGUGGAAAGUAUUAUGUUACGCCGUUCGGAUCUGCACUUCCAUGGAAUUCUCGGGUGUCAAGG", "log2 enrichment": -1.3}
{"Strand": "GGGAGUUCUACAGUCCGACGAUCGUCCUGUGCUACACAUCGUAUGUACCGAAUCAAAUUUAAAUUUUUAAAUUUUUUUAAAAAAGUAUUAUGUUACGCCGUUCGGAUCUGCACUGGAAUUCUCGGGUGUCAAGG", "log2 enrichment": -2.63}
{"Strand": "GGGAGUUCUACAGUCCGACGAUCUGGGAGGUGGAUUUUGUUUAUUUUUUUAGCUCAUUUCCAGGGGUGGGAAUUUUUUUUUAAAAUGUGUCAUGAAUAAAGUUGUUUUUGAAAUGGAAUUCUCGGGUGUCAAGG", "log2 enrichment": 3.11}
{"Strand": "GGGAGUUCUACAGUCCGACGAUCCAAGUCCUGUGCUACACAUCGUAUGUACCGAAUCGGCCCGGGGCCCGGGCCCGGGAAAGUAUUAUGUUACGCCGUUCGGAUCUGCACUUCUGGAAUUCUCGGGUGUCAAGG", "log2 enrichment": -1.59}
{"Strand": "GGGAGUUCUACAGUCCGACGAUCCACAGACAACACGCACCCACACAGACACAGAGGGAAGGGGUUGGGAUGGGGACACGGUGCACAGCAGGGCGGGGUAGGACCCCAGCCCCUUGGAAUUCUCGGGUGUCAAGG", "log2 enrichment": -0.511}
{"note": "A few entries again (block 4):"}
{"Strand": "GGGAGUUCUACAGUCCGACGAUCCAAGUCCUGUGCUACACAUCGUAUGUACCGAAUCGGGGUGGGGUUUGGGGAGGGGAAAGUAUUAUGUUACGCCGUUCGGAUCUGCACUUCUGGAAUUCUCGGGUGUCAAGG", "log2 enrichment": 3.51}
{"Strand": "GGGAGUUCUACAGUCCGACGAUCUCAAGUCCUGUGCUACACAUCGUAUGUACCGAAUCGGGGUGGGGAGGGGAGGGGAAAGUAUUAUGUUACGCCGUUCGGAUCUGCACUUCCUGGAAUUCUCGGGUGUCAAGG", "log2 enrichment": 3.24}
{"Strand": "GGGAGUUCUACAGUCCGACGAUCAAGUCCUGUGCUACACAUCGUAUGUACCGAAUCGGAAAAGGGGAAAAGGAAAAGGGAAAGUAUUAUGUUACGCCGUUCGGAUCUGCACUUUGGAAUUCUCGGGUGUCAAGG", "log2 enrichment": -1.51}
{"Strand": "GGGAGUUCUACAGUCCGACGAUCCUCAAGUCCUGUGCUACACAUCGUAUGUACCGAAUCGGAAAGGAAAAAGGUGGAAAGUAUUAUGUUACGCCGUUCGGAUCUGCACUUCCAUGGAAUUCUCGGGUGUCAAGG", "log2 enrichment": -1.3}
{"Strand": "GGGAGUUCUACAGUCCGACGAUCGUCCUGUGCUACACAUCGUAUGUACCGAAUCAAAUUUAAAUUUUUAAAUUUUUUUAAAAAAGUAUUAUGUUACGCCGUUCGGAUCUGCACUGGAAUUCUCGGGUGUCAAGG", "log2 enrichment": -2.63}
{"Strand": "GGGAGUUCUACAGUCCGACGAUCUGGGAGGUGGAUUUUGUUUAUUUUUUUAGCUCAUUUCCAGGGGUGGGAAUUUUUUUUUAAAAUGUGUCAUGAAUAAAGUUGUUUUUGAAAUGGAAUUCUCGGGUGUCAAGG", "log2 enrichment": 3.11}
